# Experimental data from different studies.
# Each line is one published result; not all experiments were run side by side.
# Target: Tyrosine-protein kinase Srms (SRMS, Homo sapiens, UniProt Q9H3Y6)
# Sequence of UniProt Q9H3Y6 (whole entry, looked up): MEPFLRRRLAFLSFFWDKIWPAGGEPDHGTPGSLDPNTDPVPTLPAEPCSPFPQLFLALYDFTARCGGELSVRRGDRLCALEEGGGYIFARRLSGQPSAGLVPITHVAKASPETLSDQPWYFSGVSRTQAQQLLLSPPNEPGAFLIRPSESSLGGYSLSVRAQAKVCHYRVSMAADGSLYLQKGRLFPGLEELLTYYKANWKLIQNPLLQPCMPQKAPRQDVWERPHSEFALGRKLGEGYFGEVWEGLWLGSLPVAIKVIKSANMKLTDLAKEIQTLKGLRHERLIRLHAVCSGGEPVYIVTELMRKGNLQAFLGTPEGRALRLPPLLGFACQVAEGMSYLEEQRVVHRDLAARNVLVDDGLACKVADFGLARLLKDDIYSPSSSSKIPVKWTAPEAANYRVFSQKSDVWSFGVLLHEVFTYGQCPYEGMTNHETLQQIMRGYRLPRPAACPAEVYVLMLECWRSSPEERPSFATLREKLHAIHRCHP
SMILES,test,system,conditions,scale,endpoint,value
CNC(=O)C1CCN(c2cc(C)c(F)cc2NC(=O)c2ccc(-c3cc(O)ccc3C)c(C)c2)CC1,"binding, competition with immobilised ligand",,1 µM,,remaining binding,78%
C=CC(=O)Nc1cccc(-c2cnc3[nH]cc(C(=O)NC(C)(C)C)c3n2)c1,"enzyme activity, inhibitor",,0.1 µM,,inhibition,-2%
Cc1cccc(O[C@H]2CCC[C@@H](C(C)CNCc3ccncc3)C2)c1 (relative stereo),"enzyme activity, inhibitor",,1 µM,,inhibition,-3%
Cc1ccc(-c2c(/C=C(\C#N)C(=O)NC(C)C)n(CCCO)c3ncnc(N)c23)cc1,"cell-free assay, competition with immobilised ligand",,1 µM,,remaining binding,90%
CC(C)=CC1OC(C)(C)C2C=C3C(=O)C(Cl)=CC(O)C3C3C(O)C4OC4C(=O)C132 (stereo not shown),"cell-free assay, competition with immobilised ligand",,10 µM,,remaining binding,67%
NC(=O)[C@@H](O)C[C@H]1CCc2sc3ncnc(O[C@H]4CC[C@H](N5CCOCC5)CC4)c3c21,"enzyme activity, inhibitor",,10 µM,,inhibition,17%
COc1cc(Nc2nccc(-c3cnn4nc(OC)ccc34)n2)cc(C(F)(F)F)c1,"binding, competition with immobilised ligand",,1 µM,,remaining binding,100%
Cc1ccc(C(=O)Nc2ccc(CN3CCN(C)CC3)c(C(F)(F)F)c2)cc1C#Cc1cnc2cccnn12,"target engagement, NanoBRET",human cells,,,Hill slope,1.64
CN1CC[C@@H](COc2cnc(C#N)cc2-c2ccn3nc(NC(=O)C4CC4)cc3c2)C1,"enzyme activity, inhibitor",,1 µM,,inhibition,-3%
C=CC(=O)N1CCc2ccc(-n3c(=O)ccc4cnc5ccc(-c6cnn(C)c6)cc5c43)cc21,KINOMEscan,,1 µM,relative to: DMSO control,remaining binding,95%
C=CC(=O)N1CCCC(n2c(=O)c3ncccc3n(Cc3ccc(Oc4ccccc4)cc3)c2=O)C1 (stereo not shown),"cell-free assay, competition with immobilised ligand",,1 µM,,remaining binding,80%
Nc1ncc(-c2cc(-c3cnn(CC(F)(F)F)c3)ncc2F)nc1C(=O)NC1CNCC(F)C1 (stereo not shown),enzyme activity,,1 µM,relative to: DMSO control,remaining activity,102%
O=C(Cc1ccc(OCc2ccccc2)cc1)NC1(C(=O)O)CCN(C(=O)c2ccc(-c3cccc(Cl)c3)cc2)CC1,"enzyme activity, inhibitor",,10 µM,,activity vs control,99%
